Measured values gathered from unrelated publications.
Lines come from different studies, so protocols differ. Several values in a cell are separate wells, animals, samples, runs or records.
UniProt Q8NER1, sequence (whole entry, looked up): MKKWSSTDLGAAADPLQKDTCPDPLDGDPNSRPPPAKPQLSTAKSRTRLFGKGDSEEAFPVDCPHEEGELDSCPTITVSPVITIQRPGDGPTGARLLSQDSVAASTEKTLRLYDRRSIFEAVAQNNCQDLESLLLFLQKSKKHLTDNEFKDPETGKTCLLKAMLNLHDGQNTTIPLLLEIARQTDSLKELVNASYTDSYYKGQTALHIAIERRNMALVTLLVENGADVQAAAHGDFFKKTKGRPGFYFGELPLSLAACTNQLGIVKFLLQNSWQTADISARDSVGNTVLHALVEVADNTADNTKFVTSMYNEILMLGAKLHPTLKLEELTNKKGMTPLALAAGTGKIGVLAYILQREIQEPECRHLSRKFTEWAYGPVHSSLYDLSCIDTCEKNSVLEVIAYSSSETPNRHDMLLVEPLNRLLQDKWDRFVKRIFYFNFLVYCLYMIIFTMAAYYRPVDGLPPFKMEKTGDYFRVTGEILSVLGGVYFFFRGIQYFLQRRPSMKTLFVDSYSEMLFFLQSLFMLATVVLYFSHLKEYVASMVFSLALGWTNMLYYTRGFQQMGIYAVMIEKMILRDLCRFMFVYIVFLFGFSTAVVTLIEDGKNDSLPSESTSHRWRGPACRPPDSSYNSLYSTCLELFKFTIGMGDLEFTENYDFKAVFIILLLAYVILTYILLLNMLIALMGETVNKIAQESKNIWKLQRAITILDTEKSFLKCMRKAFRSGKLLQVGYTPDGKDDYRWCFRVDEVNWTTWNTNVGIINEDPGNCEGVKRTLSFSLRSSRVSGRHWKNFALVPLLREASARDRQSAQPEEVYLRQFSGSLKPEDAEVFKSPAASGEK
UniProt P0A8T7, sequence (whole entry, looked up): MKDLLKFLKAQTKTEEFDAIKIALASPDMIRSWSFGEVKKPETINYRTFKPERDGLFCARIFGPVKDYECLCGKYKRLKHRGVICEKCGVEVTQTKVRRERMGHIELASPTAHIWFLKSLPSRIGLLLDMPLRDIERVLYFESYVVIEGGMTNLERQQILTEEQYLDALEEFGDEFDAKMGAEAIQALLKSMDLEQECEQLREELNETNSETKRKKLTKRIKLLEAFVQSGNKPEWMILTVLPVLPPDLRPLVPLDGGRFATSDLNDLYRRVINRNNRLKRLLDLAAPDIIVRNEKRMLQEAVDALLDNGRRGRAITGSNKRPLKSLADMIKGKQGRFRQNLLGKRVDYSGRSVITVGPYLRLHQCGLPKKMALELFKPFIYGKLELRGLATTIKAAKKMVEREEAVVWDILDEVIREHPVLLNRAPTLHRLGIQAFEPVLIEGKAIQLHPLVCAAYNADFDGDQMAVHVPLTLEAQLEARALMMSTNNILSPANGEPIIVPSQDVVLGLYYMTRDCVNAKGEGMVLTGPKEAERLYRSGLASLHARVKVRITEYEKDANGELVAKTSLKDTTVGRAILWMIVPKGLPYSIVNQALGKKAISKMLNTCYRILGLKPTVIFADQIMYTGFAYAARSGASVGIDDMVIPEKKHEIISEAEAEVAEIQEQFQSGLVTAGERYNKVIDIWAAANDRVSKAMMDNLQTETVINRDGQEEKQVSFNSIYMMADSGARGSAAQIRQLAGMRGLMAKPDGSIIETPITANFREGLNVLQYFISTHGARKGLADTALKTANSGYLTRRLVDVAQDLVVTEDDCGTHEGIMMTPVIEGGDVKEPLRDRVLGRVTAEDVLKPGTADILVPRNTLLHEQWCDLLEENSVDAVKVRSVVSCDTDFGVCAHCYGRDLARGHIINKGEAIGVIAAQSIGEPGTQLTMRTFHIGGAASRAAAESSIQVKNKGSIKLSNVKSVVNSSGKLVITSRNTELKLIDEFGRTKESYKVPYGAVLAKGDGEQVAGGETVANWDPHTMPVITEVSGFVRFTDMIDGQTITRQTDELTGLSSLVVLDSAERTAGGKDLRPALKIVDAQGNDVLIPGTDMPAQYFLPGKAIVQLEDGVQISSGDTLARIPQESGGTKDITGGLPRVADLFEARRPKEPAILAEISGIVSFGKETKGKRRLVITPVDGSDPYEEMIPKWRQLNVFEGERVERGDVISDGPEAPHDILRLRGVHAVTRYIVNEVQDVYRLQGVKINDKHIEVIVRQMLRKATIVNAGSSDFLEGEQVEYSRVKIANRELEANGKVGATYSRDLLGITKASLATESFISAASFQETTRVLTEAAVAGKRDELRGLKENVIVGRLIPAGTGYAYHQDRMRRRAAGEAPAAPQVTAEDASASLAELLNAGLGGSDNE
UniProt Q96NY8, sequence (whole entry, looked up): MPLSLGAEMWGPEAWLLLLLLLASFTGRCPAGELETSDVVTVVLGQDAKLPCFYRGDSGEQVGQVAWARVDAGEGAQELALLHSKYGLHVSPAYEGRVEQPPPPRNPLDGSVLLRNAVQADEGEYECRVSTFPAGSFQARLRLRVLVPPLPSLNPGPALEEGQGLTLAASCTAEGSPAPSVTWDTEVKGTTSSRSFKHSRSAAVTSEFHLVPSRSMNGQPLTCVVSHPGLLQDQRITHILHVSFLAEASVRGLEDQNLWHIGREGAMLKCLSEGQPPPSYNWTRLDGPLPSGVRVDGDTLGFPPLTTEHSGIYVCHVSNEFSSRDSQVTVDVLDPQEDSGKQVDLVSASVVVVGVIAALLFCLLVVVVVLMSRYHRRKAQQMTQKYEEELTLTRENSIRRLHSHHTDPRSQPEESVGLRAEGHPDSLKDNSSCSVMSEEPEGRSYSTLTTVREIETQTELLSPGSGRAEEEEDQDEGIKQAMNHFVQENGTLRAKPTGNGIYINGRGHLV
UniProt P11388, sequence (whole entry, looked up): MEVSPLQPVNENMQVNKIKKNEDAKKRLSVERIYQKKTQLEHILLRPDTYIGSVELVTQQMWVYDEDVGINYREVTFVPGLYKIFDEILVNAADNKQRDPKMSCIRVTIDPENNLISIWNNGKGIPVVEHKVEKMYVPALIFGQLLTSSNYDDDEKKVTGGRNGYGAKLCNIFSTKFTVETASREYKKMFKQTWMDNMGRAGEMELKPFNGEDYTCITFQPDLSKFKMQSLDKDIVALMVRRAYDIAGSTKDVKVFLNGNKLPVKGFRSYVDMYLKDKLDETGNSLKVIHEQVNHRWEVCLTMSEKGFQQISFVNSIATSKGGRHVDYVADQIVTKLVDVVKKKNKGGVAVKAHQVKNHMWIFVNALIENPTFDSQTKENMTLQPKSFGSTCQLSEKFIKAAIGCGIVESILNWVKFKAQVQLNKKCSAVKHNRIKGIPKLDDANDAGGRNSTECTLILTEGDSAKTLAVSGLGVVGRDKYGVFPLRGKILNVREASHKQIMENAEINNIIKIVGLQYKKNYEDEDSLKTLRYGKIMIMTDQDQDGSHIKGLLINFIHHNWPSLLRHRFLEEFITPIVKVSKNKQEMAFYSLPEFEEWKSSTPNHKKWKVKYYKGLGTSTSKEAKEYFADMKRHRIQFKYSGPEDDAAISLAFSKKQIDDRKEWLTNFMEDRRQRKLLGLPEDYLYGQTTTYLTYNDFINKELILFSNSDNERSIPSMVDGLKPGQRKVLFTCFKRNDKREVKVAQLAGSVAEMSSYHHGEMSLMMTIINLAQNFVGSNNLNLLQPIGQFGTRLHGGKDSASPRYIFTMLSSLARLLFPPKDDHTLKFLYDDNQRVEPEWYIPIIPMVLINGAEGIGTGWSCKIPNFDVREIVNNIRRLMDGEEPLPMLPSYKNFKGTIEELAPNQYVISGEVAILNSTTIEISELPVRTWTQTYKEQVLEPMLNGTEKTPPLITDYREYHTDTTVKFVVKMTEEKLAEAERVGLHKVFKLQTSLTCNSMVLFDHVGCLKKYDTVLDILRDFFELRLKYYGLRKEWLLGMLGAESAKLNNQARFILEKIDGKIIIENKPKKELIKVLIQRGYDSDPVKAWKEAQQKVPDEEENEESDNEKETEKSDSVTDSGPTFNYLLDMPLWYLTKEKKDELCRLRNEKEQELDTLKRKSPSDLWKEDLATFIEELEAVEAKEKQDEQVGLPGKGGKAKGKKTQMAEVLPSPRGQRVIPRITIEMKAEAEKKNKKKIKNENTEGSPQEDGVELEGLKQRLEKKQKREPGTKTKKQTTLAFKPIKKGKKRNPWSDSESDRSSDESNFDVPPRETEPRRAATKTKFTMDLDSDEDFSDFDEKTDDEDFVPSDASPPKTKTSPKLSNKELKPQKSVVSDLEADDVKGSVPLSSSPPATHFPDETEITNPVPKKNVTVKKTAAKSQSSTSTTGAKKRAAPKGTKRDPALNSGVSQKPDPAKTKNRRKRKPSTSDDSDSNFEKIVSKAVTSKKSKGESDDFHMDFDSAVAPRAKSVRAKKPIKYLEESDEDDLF
UniProt Q9NS67, sequence (whole entry, looked up): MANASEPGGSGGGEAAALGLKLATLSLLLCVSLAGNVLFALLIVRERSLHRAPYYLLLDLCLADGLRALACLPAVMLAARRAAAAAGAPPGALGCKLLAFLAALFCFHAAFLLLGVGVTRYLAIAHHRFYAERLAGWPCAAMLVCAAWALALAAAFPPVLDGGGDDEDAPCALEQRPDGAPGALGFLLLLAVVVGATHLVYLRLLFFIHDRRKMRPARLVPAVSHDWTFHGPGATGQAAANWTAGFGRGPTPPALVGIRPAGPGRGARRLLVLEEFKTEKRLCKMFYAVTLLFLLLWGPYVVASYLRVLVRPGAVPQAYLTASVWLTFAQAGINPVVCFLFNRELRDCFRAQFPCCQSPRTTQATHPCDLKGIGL
UniProt Q07011, sequence (whole entry, unmodified, looked up): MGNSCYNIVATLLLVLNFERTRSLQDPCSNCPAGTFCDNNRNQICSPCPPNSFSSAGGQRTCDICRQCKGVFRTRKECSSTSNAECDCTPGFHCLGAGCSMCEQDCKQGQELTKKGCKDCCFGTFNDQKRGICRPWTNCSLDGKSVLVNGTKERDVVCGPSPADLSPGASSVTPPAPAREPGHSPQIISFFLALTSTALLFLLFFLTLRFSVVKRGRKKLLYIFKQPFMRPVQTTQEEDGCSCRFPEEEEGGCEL

SMILES = Nc1ncnc2c1ncn2[C@@H]1O[C@H](COP(=O)(O)CP(=O)(O)OP(=O)(O)O)[C@@H](O)[C@H]1O; target = P2X purinoceptor 1 (P2RX1, Homo sapiens, UniProt P51575, F188L); test = calcium influx; setting = 3.16 nM; how to read = baseline: ionomycin response; quantity = calcium influx; value = 0%
SMILES = CCCC[C@@H]1NC(=O)[C@H](Cc2ccc(O)cc2)NC(=O)[C@@H]2CCCN2C(=O)[C@H](CC(=O)O)NC(=O)[C@H](C)NC(=O)[C@H](Cc2ccccc2)NC(=O)[C@@H]2CSCCC(=O)N3CN(CN(C3)C(=O)CCSC[C@@H](C(=O)N[C@@H](C)C(N)=O)NC1=O)C(=O)CCSC[C@H](NC(C)=O)C(=O)N[C@@H](CC(C)(C)C)C(=O)N1CCC[C@H]1C(=O)N[C@@H](CCC(=O)O)C(=O)N[C@H](CCCCNC(=O)CCc1cn(CCOCCOCCOCCOCCOCCC(=O)N[C@H]3CSCCC(=O)N4CN5CN(C4)C(=O)CCSC[C@H](NC(=O)CNC(=O)[C@H](Cc4ccccc4)NC(=O)[C@@H]4CCCN4C3=O)C(=O)N[C@@H](CCSC)C(=O)N[C@@H](CCCCNC(=N)N)C(=O)N[C@@H](CC(=O)O)C(=O)N[C@@H](Cc3c[nH]c4ccccc34)C(=O)N[C@@H](CO)C(=O)N[C@@H]([C@@H](C)O)C(=O)N3CCC[C@H]3C(=O)N3C[C@H](O)C[C@H]3C(=O)N[C@@H](Cc3c[nH]c4ccccc34)C(=O)N[C@H](C(N)=O)CSCCC5=O)nn1)C(=O)N1CCC[C@H]1C(=O)N[C@@H](Cc1ccc(O)cc1)C(=O)N2; target = Tumor necrosis factor receptor superfamily member 9/Nectin-4 (Homo sapiens, UniProt Q07011+Q96NY8); test = reporter gene, agonist; test system = HT-1376 coculture with reporter cells; how to read = baseline: background; quantity = Emax; value = 33 fold
SMILES = O=c1nc(SCc2cc(F)cc(C(F)(F)F)c2)nc(SCc2ccc3nc(OCCN4CCOCC4)ccc3c2)[nH]1; target = DNA topoisomerase 2-alpha (TOP2A, Homo sapiens, UniProt P11388); test = decatenation; setting = 31.25 µM, replicate 1; quantity = decatenated DNA; value = 1.6%
SMILES = Nc1ncnc2c1ncn2[C@@H]1O[C@H](COP(=O)(O)OP(=O)(O)OP(=O)(O)O)[C@@H](O)[C@H]1O; target = P2X purinoceptor 2 (P2RX2, Homo sapiens, UniProt Q9UBL9); test = ion current, agonist, two-electrode voltage clamp; test system = Xenopus oocytes; setting = concentration not given, first maximal application; quantity = peak current; value = 4490 nA
SMILES = COc1ccc(Cc2nnc(NS(=O)(=O)c3ccc(Cl)cc3)s2)cc1; target = Glutathione hydrolase 1 proenzyme, without transmembrane domain (Homo sapiens, UniProt P19440); test = GSH hydrolysis; setting = 37 °C, no inhibition up to 250 µM, with: GSH 5-20 µM; quantity = Kii; value = > 250 µM
SMILES = C[C@H]1O[C@@H](O[C@H]2CC[C@@]3(C)[C@@H](CC[C@]4(C)[C@@H]3C=CC3=C5CC(C)(C)CC[C@]5(CO)[C@@H](O)C[C@]34C)[C@]2(C)CO)[C@H](O)[C@@H](O[C@@H]2O[C@H](CO)[C@@H](O)[C@H](O)[C@H]2O)[C@H]1O; target = NAD-dependent protein deacetylase sirtuin-1 (SIRT1, Homo sapiens, UniProt Q96EB6); test = binding, microscale thermophoresis; setting = 122 nM; quantity = MST normalised fluorescence; value = 884 a.u.
SMILES = COc1cc(CNC(=O)CCCC/C=C/C(C)C)ccc1O; target = Transient receptor potential cation channel subfamily V member 1 (TRPV1, Homo sapiens, UniProt Q8NER1); test = channel activation, FLIPR calcium; test system = HEK293T; setting = 0.00102 µM; how to read = higher = more activation; quantity = calcium response; value = 2.94 a.u. and 5.71 a.u. and -3.37 a.u. and -4.15 a.u.
SMILES = O=c1ccn([C@@H]2O[C@H](COP(=O)(O)OP(=O)(O)OP(=O)(O)O)[C@@H](O)[C@H]2O)c(=O)[nH]1; target = DNA-directed RNA polymerase subunit beta' / DNA-directed RNA polymerase subunit beta (rpoC/rpoB, Escherichia coli, UniProt P0A8T7+P0A8V2); test = RNA extension, denaturing gel; test system = Escherichia coli, elongation complex, 6-MI template; setting = 5 µM, 10 min, 25 °C; quantity = incorporation efficiency; value = 89%
SMILES = O=C(O)c1ccc(Nc2ncc3c(n2)-c2ccc(Cl)cc2C(c2c(F)cccc2F)=NC3)cc1; target = Lyn(h); test = kinase activity; setting = 1 µM; quantity = remaining activity; value = 46%
SMILES = CNc1ccc([N+](=O)[O-])cc1-n1cnc(-c2cc(F)c(F)cc2F)c1; target = Toll-like receptor 1/2 (Homo sapiens, UniProt O60603+Q15399); test = reporter gene, agonist; test system = HEK-Blue hTLR2; setting = concentration not given; quantity = maximal activation; value = ≥ 50%
SMILES = CCN1CCC[C@H]1CNC(=O)c1c(O)c(Cl)cc(Cl)c1OC; target = Probable G-protein coupled receptor 27 (Homo sapiens, UniProt Q9NS67); test = β-arrestin recruitment, TANGO luminescence, measured: GPR27; setting = concentration not given; how to read = baseline: basal luminescence; quantity = log2 fold change; value = -0.203

For quick reference, copied from above:
SMILES = CCCC[C@@H]1NC(=O)[C@H](Cc2ccc(O)cc2)NC(=O)[C@@H]2CCCN2C(=O)[C@H](CC(=O)O)NC(=O)[C@H](C)NC(=O)[C@H](Cc2ccccc2)NC(=O)[C@@H]2CSCCC(=O)N3CN(CN(C3)C(=O)CCSC[C@@H](C(=O)N[C@@H](C)C(N)=O)NC1=O)C(=O)CCSC[C@H](NC(C)=O)C(=O)N[C@@H](CC(C)(C)C)C(=O)N1CCC[C@H]1C(=O)N[C@@H](CCC(=O)O)C(=O)N[C@H](CCCCNC(=O)CCc1cn(CCOCCOCCOCCOCCOCCC(=O)N[C@H]3CSCCC(=O)N4CN5CN(C4)C(=O)CCSC[C@H](NC(=O)CNC(=O)[C@H](Cc4ccccc4)NC(=O)[C@@H]4CCCN4C3=O)C(=O)N[C@@H](CCSC)C(=O)N[C@@H](CCCCNC(=N)N)C(=O)N[C@@H](CC(=O)O)C(=O)N[C@@H](Cc3c[nH]c4ccccc34)C(=O)N[C@@H](CO)C(=O)N[C@@H]([C@@H](C)O)C(=O)N3CCC[C@H]3C(=O)N3C[C@H](O)C[C@H]3C(=O)N[C@@H](Cc3c[nH]c4ccccc34)C(=O)N[C@H](C(N)=O)CSCCC5=O)nn1)C(=O)N1CCC[C@H]1C(=O)N[C@@H](Cc1ccc(O)cc1)C(=O)N2; target = Tumor necrosis factor receptor superfamily member 9/Nectin-4 (Homo sapiens, UniProt Q07011+Q96NY8); test = reporter gene, agonist; test system = HT-1376 coculture with reporter cells; how to read = baseline: background; quantity = Emax; value = 33 fold
